Results collected from several papers.
Compare with care: the assays were run in different laboratories.

SMILES	test	test system	setting	kinetic solubility
CCN(c1nc(N[C@H](CC(N)=O)C(=O)NC)nc(N2CCN(c3ccccc3C#N)CC2)n1)C1CCCCC1		PBS	pH 7.4	246 µM
CCN(CC)S(=O)(=O)c1cc(NCC(=O)Nc2ccc(F)c(Cl)c2)ccc1C		water		79 µM
C[C@@H]1CC[C@@H]([C@](O)(CNCc2cccc(F)c2)COCc2ccccc2)[C@H](OCc2ccccc2)C1		PBS	2 h, pH 7.4	20.9 µM
Cc1cc(N2CCC(CO)(C3CC3)C2=O)cc(C(=O)NCc2cc(F)cc(-c3cnn(C)c3)c2)n1 (stereo not drawn)	nephelometry	aqueous buffer	30 min, pH 6.5	3.1 to 6.3 µg/mL
C[C@@H]1CC[C@@H]([C@@](O)(CNCc2ccc(F)cc2)COCc2ccccc2)[C@H](OCc2ccccc2)C1		PBS	2 h, pH 7.4	1.4 µM
Cc1ccc(NC(C)(C)C(=O)Nc2ccc(F)c(Cl)c2)cc1S(=O)(=O)N1CC2CC1CO2 (stereo not drawn)		water		143 µM
COc1cncc(-c2cc(F)cc(CNC(=O)c3cc(N4CC[C@@](C#N)(C5CC5)C4=O)cc(C)n3)c2)c1	nephelometry	aqueous buffer	30 min, pH 6.5	< 1.6 µg/mL
CC(C)(C)C12CC(CN3CCN(C(c4ccccc4)c4ccc(Cl)cc4)CC3)(C1)C2 (stereo not drawn)		PBS	pH 7.4	≤ 1 µM
COc1ccc(CNC[C@@](O)(COCc2ccccc2)[C@@H]2CC[C@@H](C)C[C@H]2OCc2ccccc2)cc1		PBS	2 h, pH 7.4	6.1 µM
O=C(CNc1ccc(Cl)c(S(=O)(=O)N2CCOCC2)c1)Nc1ccc(F)c(Cl)c1		water		79 µM
COc1ccc(COC[C@](O)(CNCc2ccccc2)[C@@H]2CC[C@@H](C)C[C@H]2OCc2ccc(OC)cc2)cc1		PBS	2 h, pH 7.4	92 µM
COc1ccc(-c2csc(N/N=C(\C)c3cc(O)cc(O)c3)n2)cc1	HPLC	aqueous buffer	2 h, pH 7.4, 24 °C	> 12.5 µM
Cc1ccc(NCC(=O)Nc2cccc(Cl)c2)cc1S(=O)(=O)N1CCOCC1		water		219 µM
C[C@@H]1CC[C@@H]([C@](O)(CNCc2ccccc2F)COCc2ccccc2)[C@H](OCc2ccccc2)C1		PBS	2 h, pH 7.4	2.6 µM
COc1cnc2cccc(N3CCc4c(cc(Cn5ccnc5)cc4-c4cn(C)nc4C(F)(F)F)C3=O)c2c1		PBS	1 h, pH 7.4	73 µM

Excerpt of the above:
SMILES	test	test system	setting	kinetic solubility
C[C@@H]1CC[C@@H]([C@](O)(CNCc2ccccc2F)COCc2ccccc2)[C@H](OCc2ccccc2)C1		PBS	2 h, pH 7.4	2.6 µM
